{"data": "Assay results from different studies", "note": "Compare with care: the assays were run in different laboratories."}
{"SMILES": "c1ccc(CCNC2CCCc3c2[nH]c2ccc(C4CCCCC4)cc32)cc1 (stereo not shown)", "organism": "Staphylococcus aureus", "test": "broth microdilution", "test system": "HG001, cation-adjusted MHB", "MIC": "4 µg/mL"}
{"SMILES": "CC(C)C[C@H](NC(=O)[C@H](CC(C)C)NC(=O)[C@H](C)NC(=O)[C@H](NC(=O)[C@H](CO)NC(=O)[C@@H](CCCCN)NC(=O)[C@@H](CC(C)C)NC(=O)[C@@H](N)Cc1ccccc1)[C@@H](O)C(N)=O)C(=O)O", "organism": "Bacillus subtilis Bacillus subtilis", "test system": "ATCC 6051", "conditions": "tested as TFA salt", "MIC": "> 32 µg/mL"}
{"SMILES": "CCCCc1ccc(-c2nc(C)c(C(C)=NNC(=N)N)s2)cc1", "organism": "Staphylococcus aureus", "test system": "NRS19 VISA", "MIC": "1.3 µg/mL"}
{"SMILES": "CC[C@H](C)[C@@H]1NC(=O)CNC(=O)[C@H](CCCCN)NC(=O)[C@H](C)NC(=O)[C@H](CCC(=O)O)NC(=O)[C@H](Cc2ccccc2)NC(=O)[C@H](CO)NC(=O)[C@H](CC(C)C)NC(=O)[C@H](C(C)C)NC(=O)[C@H](CC(=O)O)NC(=O)[C@@H](NC(=O)[C@@H](NC(=O)[C@@H](N)C(C)C)[C@@H](C)O)CSSC[C@@H]2NC(=O)[C@H](CO)NC(=O)CNC(=O)CNC(=O)[C@H](CCCCN)NC(=O)[C@H](CCCCN)NC(=O)[C@H](CCCNC(=N)N)NC(=O)[C@H](CC(C)C)NC(=O)[C@H](C)NC(=O)[C@H]([C@@H](C)CC)NC(=O)[C@H](CSSC[C@@H](C(=O)N[C@@H](CCCNC(=N)N)C(=O)N[C@@H](CC(N)=O)C(=O)O)NC(=O)[C@H](C(C)C)NC(=O)[C@H](C)NC(=O)[C@H](C(C)C)NC(=O)CNC(=O)[C@H](CC(N)=O)NC(=O)[C@H](CCC(N)=O)NC2=O)NC(=O)[C@H](Cc2c[nH]cn2)NC(=O)[C@H](CC(C)C)NC(=O)[C@H](C)NC(=O)[C@H](C)NC(=O)[C@H](C)NC(=O)[C@H](CO)NC(=O)[C@H](Cc2c[nH]cn2)NC(=O)[C@H](CC(N)=O)NC(=O)[C@H](C(C)C)NC(=O)[C@H](C)NC1=O", "organism": "Malassezia furfur", "test": "broth microdilution", "test system": "KCTC 7744", "conditions": "32 °C, YM broth with 1% olive oil", "MIC": "25 µM"}
{"SMILES": "C[N+]1=C2C(c3ccccc3)=[N+]([O-])c3ccccc3N2CCC1", "organism": "Eggerthella lenta", "test": "microbial growth", "test system": "ATCC43055", "MIC": "4 µg/mL"}
{"SMILES": "CC[C@H](C)[C@H](NC(=O)[C@H](CC(C)C)NC(=O)[C@H](C)NC(=O)[C@H](CO)NC(=O)[C@H](CCCNC(=N)N)NC(=O)[C@@H](N)CO)C(=O)N[C@H](C(=O)N[C@@H](Cc1c[nH]cn1)C(=O)N[C@@H](CCC(N)=O)C(=O)N[C@@H](CCCNC(=N)N)C(=O)N[C@@H](CC(C)C)C(=O)N[C@@H](Cc1ccccc1)C(N)=O)C(C)C", "organism": "Trichophyton rubrum", "test": "broth microdilution", "test system": "ATCC 28189", "MIC": "> 400 µg/mL"}
{"SMILES": "COc1ccc(C2=[N+]([O-])c3ccccc3N3CC(C)(C)CN=C23)cc1", "organism": "Peptostreptococcus anaerobius", "MIC": "1 µg/mL"}
{"SMILES": "CN[C@@H]1[C@H](O)[C@H](NC)[C@H]2O[C@]3(O)[C@H](O[C@@H]2[C@H]1O)O[C@H](C)C[C@]3(O)CNCc1ccc(F)cc1", "organism": "Listeria monocytogenes", "MIC": "> 200 µg/mL"}
{"SMILES": "CCCCCCCCCCCCCCCCCCSCC1OC(OC2C(N)CC(N)C(OC3OC(CN)C(O)CC3N)C2O)C(O)C(N)C1O (stereo not shown)", "organism": "Listeria monocytogenes", "test system": "ATCC 19115", "MIC": "75 µg/mL"}
{"SMILES": "C[N+]1=C2C(c3ccc([N+](=O)[O-])cc3)=[N+]([O-])c3ccccc3N2CCC1", "organism": "Fusobacterium mortiferum", "test": "microbial growth", "MIC": "1 µg/mL"}
{"note": "Repeated from above:"}
{"SMILES": "CC(C)C[C@H](NC(=O)[C@H](CC(C)C)NC(=O)[C@H](C)NC(=O)[C@H](NC(=O)[C@H](CO)NC(=O)[C@@H](CCCCN)NC(=O)[C@@H](CC(C)C)NC(=O)[C@@H](N)Cc1ccccc1)[C@@H](O)C(N)=O)C(=O)O", "organism": "Bacillus subtilis Bacillus subtilis", "test system": "ATCC 6051", "conditions": "tested as TFA salt", "MIC": "> 32 µg/mL"}
